Experimental data collected from several papers.
Several values in a cell are separate wells, animals, samples, runs or records. Numbers after ± are the reported error.

| SMILES | cell line | test | system | setting | how to read | endpoint | result |
| --- | --- | --- | --- | --- | --- | --- | --- |
| Cc1nn(-c2nc3c(F)cc(F)cc3s2)c(O)c1C(c1ccc(C(F)(F)F)cc1)c1c(C)nn(-c2nc3c(F)cc(F)cc3s2)c1O | RAW-ISG | western blot | – | 5 µM, with: HT-DNA | relative to: DMSO | phospho-TBK1 to TBK1 ratio | 0.687 and 0.88 |
| CCN1CCN(Cc2ccc(C(=O)Nc3ccc(C)c(Oc4ccc5c(c4)CC(=O)N5)c3)cc2C(F)(F)F)CC1 | SNU-1040 | – | – | 1 µM, 3 days | relative to: vehicle, 100% DMSO | cell growth | 95% |
| Cn1cc(-c2ccc(-c3cncc(Cl)c3N3CCC4(CCNC4=O)CC3)cc2)cn1 | COLO 205 | gene expression, microarray, refers to: CBS mRNA | – | concentration not given, 6 h | relative to: untreated cells | log2 fold change | 2.25 |
| COc1cnc2cccc(N3CCc4c(cc(Cn5ccnc5C)cc4-c4cn(C)nc4C(F)(F)F)C3=O)c2c1 | PLC-PRF-5 | cell growth, inhibitor | – | 120 h | – | EC50 | > 30 µM |
| CCNNC(=O)c1ccc(CN(CC(=O)NCc2ccccc2)C(=O)c2ccc(N(C)C)cc2)cc1 | A2780cisR | flow cytometry, refers to: subG1 nuclei | – | concentration not given | – | apoptotic cells | ~60% |
| COc1ccc(-n2nc(C(C)=O)s/c2=N\N=C(/C)c2ccc(NC(=O)c3ccc(C)cc3)cc2)cc1 | HepG2 | – | – | 10 µM | – | toxicity | 97.3% |
| Cc1cc(Nc2ncc(Cl)c(Nc3ccccc3S(=O)(=O)C(C)C)n2)c(OC(C)C)cc1C1CCNCC1 | CLB-BAR | phosphoproteomics LC-MS/MS, refers to: AP2B1 phosphorylation | – | 200 nM, 60 min | relative to: untreated | log2 fold change | -1.53 |
| CCc1cnc(N2CCC(c3nc(COc4ccc(-n5cnnn5)cc4)cs3)CC2)nc1 | HEK-293T | RNA-seq GSEA, refers to: Hallmark bile acid metabolism | – | concentration not given | direction not given | normalized enrichment score | 1.09 |
| CCn1cc(-c2cc(Cn3ccoc3=N)cc3c2CCN([C@@H](C)c2cc(OC)ccn2)C3=O)c(C(F)(F)F)n1 | HMCB | cell growth, inhibitor | – | 120 h | – | EC50 | 0.0341 µM |
| CCCC(=O)Oc1c(C)c(O)c(C(=O)/C=C/c2ccccc2)c(OC)c1C | KKU-M213 | SRB | – | – | relative to: normal over KKU-M213 IC50 | selectivity index | 1.09 |
| Nc1cccc2c1C(=O)N(C1CCC(=O)NC1=O)C2=O (centres unmarked) | MM1.S resistant to compound | XTT | – | 1.2 µM | – | viability | 43% and 41% and 39% |
| Nc1ncnc2nc(-c3ccc(N4CCOCC4)nc3)cc(-c3cccc(Br)c3)c12 | activated human T cells | – | human | 100 nM | – | T cell proliferation | 95.4% and 99.2% and 88.2% |
| CCCCCCCCCCCCCCCCCCOc1ccccc1CC(=O)OCCC[N+](C)(C)C | NSCLC panel (nine cell lines) | – | – | 10 µM | – | mean growth inhibition | 37.2% |
| COc1cc(C(=O)c2nc(-c3cccc4[nH]ccc34)c[nH]2)cc2c1OCO2 | PC-3/TxR paclitaxel-resistant | – | – | – | relative to: IC50 PC-3/TxR over IC50 PC-3 | resistance index | 0.4 |
| Cn1c(Nc2nc3ccc(C(F)(F)F)cc3s2)nc2cc(C(=O)NCCOCCO)ccc21 | SH-SY5Y | RNA-seq, refers to: CCN1 mRNA | – | 5 µM, 5 h | relative to: untreated cells | fold change | 3.21 |
| CC1(C)CCC(CN2CCN(c3ccc(C(=O)NS(=O)(=O)c4ccc(NCC5CCOCC5)c([N+](=O)[O-])c4)c(Oc4cnc5[nH]ccc5c4)c3)CC2)=C(c2ccc(Cl)cc2)C1 | KCL-22 | annexin V/PI flow cytometry, refers to: annexin V-/PI+ | – | 3.2 µM, 24 h | – | necrotic cells | 0.1% |
| CN(C)C(=O)c1cncc(-c2cnc3[nH]cc(-c4ccccc4C(F)(F)F)c3c2)c1 | Ba/F3 BCR-ABL wild type | cell proliferation | – | 72 h | – | GI50 | 430 ± 71.9 nM |
| CCCCCN1C[C@H](O)[C@@H](O)[C@H](O)[C@@H]1CO | Sandhoff disease patient fibroblasts | glycosphingolipid lowering, LC-MS/MS, refers to: GM2 and its quantifiable isoforms | – | – | – | IC50 | 440 nM |
| Nc1ncnc2c1ncn2[C@@H]1O[C@H](CO)[C@@H](O)[C@H]1O | activated human T cells | refers to: orotate | – | 10 µM | relative to: DMSO | log2 fold change | 7.6 and 8.5 and 9.1 |
| CCn1cc(-c2cc(Cn3ccnc3)cc3c2CCN([C@H](c2cc(OC)ccn2)C2CC2)C3=O)c(C(F)(F)F)n1 | KLE | cell growth, inhibitor | – | 120 h | – | EC50 | 10 µM |

For quick reference, copied from above:
| SMILES | cell line | test | system | setting | how to read | endpoint | result |
| --- | --- | --- | --- | --- | --- | --- | --- |
| COc1cc(C(=O)c2nc(-c3cccc4[nH]ccc34)c[nH]2)cc2c1OCO2 | PC-3/TxR paclitaxel-resistant | – | – | – | relative to: IC50 PC-3/TxR over IC50 PC-3 | resistance index | 0.4 |
| Cn1c(Nc2nc3ccc(C(F)(F)F)cc3s2)nc2cc(C(=O)NCCOCCO)ccc21 | SH-SY5Y | RNA-seq, refers to: CCN1 mRNA | – | 5 µM, 5 h | relative to: untreated cells | fold change | 3.21 |
| CC1(C)CCC(CN2CCN(c3ccc(C(=O)NS(=O)(=O)c4ccc(NCC5CCOCC5)c([N+](=O)[O-])c4)c(Oc4cnc5[nH]ccc5c4)c3)CC2)=C(c2ccc(Cl)cc2)C1 | KCL-22 | annexin V/PI flow cytometry, refers to: annexin V-/PI+ | – | 3.2 µM, 24 h | – | necrotic cells | 0.1% |
